Measurements gathered from unrelated publications.
Parts stem from different laboratories: compare values within a part only.

Set 1
Target: Centromere-binding protein 1, full length, His-tagged (CBF1, Saccharomyces cerevisiae, UniProt P17106, residues 1-351)
UniProt P17106, sequence (whole entry, looked up): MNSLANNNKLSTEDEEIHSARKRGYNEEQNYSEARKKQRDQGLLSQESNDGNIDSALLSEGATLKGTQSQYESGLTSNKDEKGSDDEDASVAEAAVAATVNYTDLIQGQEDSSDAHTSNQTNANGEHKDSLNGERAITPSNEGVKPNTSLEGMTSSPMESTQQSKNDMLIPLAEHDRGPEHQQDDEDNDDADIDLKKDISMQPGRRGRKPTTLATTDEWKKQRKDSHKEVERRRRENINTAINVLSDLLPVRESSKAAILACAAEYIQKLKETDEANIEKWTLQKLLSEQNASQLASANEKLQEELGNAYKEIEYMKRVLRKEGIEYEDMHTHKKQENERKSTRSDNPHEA
Technique: competition protein-binding microarray
Molecule type: double-stranded DNA, one strand shown
Medium: in vitro
Concentration: 2 µM
Notes: whole 60-bp probe, lowest competitor level
With: Pho4 competitor, 0.05 µM
Reading: higher = stronger binding
Oligonucleotide	fluorescence intensity
CAGAATTGTCCGAATCGTGTGACGGAAACAGCCTGTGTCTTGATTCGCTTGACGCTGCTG	88.8 a.u.
ATTTGTCAATGCCATCACGATGCAAGTCAGTGATGTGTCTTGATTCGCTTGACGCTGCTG	115 a.u.
AGCAGGATTTATAGGCGCGTGCGGACAGCCTTAGACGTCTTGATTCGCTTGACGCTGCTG	100 a.u.
CTGCCAGTAAAGCAGAATGTGCGGGTCTTGTATCCAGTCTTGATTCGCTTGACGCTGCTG	59.8 a.u.
AAAGCGGTAATTTGTCACCATACTTCACATATCTATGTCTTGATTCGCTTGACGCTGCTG	93.9 a.u.
TTGAGCATAATCCATCACGTGATGGACACCCATACCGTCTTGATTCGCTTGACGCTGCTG	11100 a.u.
TTCAATGGGACCCATCACGGCCATGACGATATCCAGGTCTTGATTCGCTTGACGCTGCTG	66.5 a.u.
GTCTTGTCTCATTGCGCAGTGGGTGTCCCCACTTCAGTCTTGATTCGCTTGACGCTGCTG	72.2 a.u.
CTTCTGTAAATTTGTCACCCGACTTGACGCGCCCCGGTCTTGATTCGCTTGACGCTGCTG	94.2 a.u.
CGTCCTAGTGATTGCTAGGTGGGTGCCATGAGGAAGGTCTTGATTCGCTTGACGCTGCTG	76.2 a.u.
AGCATTGGATCTCTAAATTAAATGCGTTAAACAGGGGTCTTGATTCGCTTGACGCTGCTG	80 a.u.
CTAACGAAGGTTTGAAGCGTGGGTGACAAGCCAAGTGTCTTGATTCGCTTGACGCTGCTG	63.4 a.u.
TGTTGCAGTCGAATTCTCGTGGCCGTACGCAATTTCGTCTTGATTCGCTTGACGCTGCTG	78.6 a.u.
CCTTTGTCGGTGGTACTCGTGGTGACGGTCCAAGAAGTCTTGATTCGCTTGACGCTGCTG	66.6 a.u.
ACAAGTGCTTTAAATGATGTGACGGGTTATTCTGGAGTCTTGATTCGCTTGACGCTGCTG	86.5 a.u.
AAAGCGGTAATTTGACAAGTGGGTGCAGATATCTATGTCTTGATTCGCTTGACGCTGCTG	71.5 a.u.
TTCCGCAGGTTTATCAACGTGTTTCACTTATATCGGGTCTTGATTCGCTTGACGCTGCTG	96.7 a.u.
AAAGCGGTAATTTGTTTTGTGGGTGCAGATATCTATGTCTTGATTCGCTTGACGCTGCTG	83 a.u.
CTTTCCCGATCTTGCCGGGTGGGTGTAGCACATTTGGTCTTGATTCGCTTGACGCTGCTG	65.3 a.u.
CCAAAGCCGCCTGAACGCGTGTTTTTGCTGTTGTTTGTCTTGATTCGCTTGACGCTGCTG	79.3 a.u.
AAGAGTATTATACAGCACGCAGCAGAACAGTTATACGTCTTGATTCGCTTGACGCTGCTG	76.2 a.u.
GCTTGGACCATAAAATACGTGACGGAGGACACCATAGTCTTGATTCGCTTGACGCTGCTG	114 a.u.
GAAGCGTTGCCCTATGACGTGCAAAGTACCGATATTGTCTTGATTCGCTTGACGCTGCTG	68.9 a.u.
AAAGCGGTAATTTGACGCGTGGGTGCAGATATCTATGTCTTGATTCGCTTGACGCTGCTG	71.5 a.u.

Set 2
Target: UBE2Q1 UBC core domain (UniProt Q7Z7E8)
Technique: yeast two-hybrid
Medium: yeast
Notes: mostly zero background
Reference: not given
Reading: higher = stronger interaction
B1: TRIM47 RING domain (UniProt Q96LD4); chain MDGSGPFSCPICLEPLREPVTLPCGHNFCLACLGALWPHRGASGAGGPGGAARCPLCQEPFPDGLQLR
B2: RNF17 RING domain (UniProt Q9BXT8); chain SQPWGAAEIQCTRCGRRVSRSSGHHCELQCGHAFCELCLLMTEECTTIICPDCEVATAVNTRQR
B3: TRIM34 RING domain (UniProt Q9BYJ4); chain ILLNVQEEVTCPICLELLTEPLSLDCGHSLCRACITVSNKEAVTSMGGKSSCPVCGISYSFEHLQA
B4: MARCHF2 RING domain (UniProt Q9P0N8); chain RLLSTVIRALDTPSDGPFCRICHEGANGECLLSPCGCTGTLGAVHKSCLEKWLSSSNTSYCELCHTEFAVEKRPRPLTEWL
B5: TRIM32 RING domain (UniProt Q13049); chain NLDALREVLECPICMESFTEEQLRPKLLHCGHTICRQCLEKLLASSINGVRCPFCSKITRITSLTQ
B6: CBLL1 RING domain (UniProt Q75N03); chain GEKDDTPVHFCDKCGLPIKIYGRMIPCKHVFCYDCAILHEKKGDKMCPGCSDPVQRIEQCT
B7: PJA2 RING domain (UniProt O43164); chain DHTAIGQEQCCPICCSEYIKDDIATELPCHHFFHKPCVSIWLQKSGTCPVCRRHFPPAVIEA
B8: RFPL3 RING domain (UniProt O75679); chain MAALFQEASSCPVCSDYLEKPMSLECGCTVCLKCINSLQKEPHGEDLLCCCCSMVSQRNKIRP
B9: ARIH1 RING domain (UniProt Q9Y4X5); chain NTRSSAQDMPCQICYLNYPNSYFTGLECGHKFCMQCWSEYLTTKIMEEGMGQTISCPAHGCDILVDDNTVM
B10: RNF10 RING domain (UniProt Q8N5U6); chain VRICSHEVPSCPICLYPPTAAKITRCGHIFCWACILHYLSLSEKTWSKCPICYSSVHKKDLKS
B11: RNF115 RING domain (UniProt Q9Y4L5); chain TQEQVDMGLECPVCKEDYTVEEEVRQLPCNHFFHSSCIVPWLELHDTCPVCRKSLNGEDSTR
B12: RMND5B RING domain (UniProt Q96G75); chain MKCWYHSVFACPILRQQTSDSNPPIKLICGHVISRDALNKLINGGKLKCPYCPMEQNPADGK
B13: RNF7 RING domain (UniProt Q9UBF6); chain AICRVQVMDACLRCQAENKQEDCVVVWGECNHSFHNCCMSLWVKQNNRCPLCQQDWVVQRIGK
Target sequence (chain): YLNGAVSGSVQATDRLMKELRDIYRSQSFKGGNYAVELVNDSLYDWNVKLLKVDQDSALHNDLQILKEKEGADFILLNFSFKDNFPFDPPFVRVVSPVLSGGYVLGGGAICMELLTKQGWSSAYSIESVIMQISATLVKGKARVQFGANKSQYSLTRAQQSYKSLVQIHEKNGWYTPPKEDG
Molecule	lacZ reporter activity
B1 (TRIM47 RING domain)	0
B2 (RNF17 RING domain)	0
B3 (TRIM34 RING domain)	0
EDVLSKDAGECAICLEELQQGDTIARLPCLCIYHKGCIDEWFEVNRSCPEHPSD (ZNRF2 RING domain (UniProt Q8NHG8))	0
B4 (MARCHF2 RING domain)	0
B5 (TRIM32 RING domain)	0
B6 (CBLL1 RING domain)	0
B7 (PJA2 RING domain)	2150
B8 (RFPL3 RING domain)	0
B9 (ARIH1 RING domain)	0
B10 (RNF10 RING domain)	0
AAQLLEEKLTCAICLGLYQDPVTLPCGHNFCGACIRDWWDRCGKACPECREPFPDGAELR (TRIM65 RING domain (UniProt Q6PJ69))	0
B11 (RNF115 RING domain)	0
B12 (RMND5B RING domain)	0
MEEMEEELKCPVCGSFYREPIILPCSHNLCQACARNILVQTPESESPQSHRAAGSGVSDY (TRIM9 RING domain (UniProt Q9C026))	0
B13 (RNF7 RING domain)	0

Set 3
Cell line: yeast with cyclin B3-Cln2 chimera
Effect on: cell growth
Mode: binder
Technique: competitive growth deep sequencing
Molecule type: peptide
Concentration: concentration not given
Notes: peptide tiling library
Reading: direction not given
Molecule	growth enrichment score
ATNSSHTDAHEILVSD	0.289
ELGMEHCEKFEISETS	0.0413
RTEALEQGGLPKKLIF	0.893
KVRRNLFNQELLSP	-0.321
VSRNLRSSLKSSLHTL	-0.268
ISRLFPPRTPGWHQLQ	-0.2
HRRRLLFACSPPPASQ	-0.749
SPREGHMMDALYAQVK	0.553
SFLIEYEFLIPPSLKP	0.911
GPVKLEFDVSDGAT	-0.765
YLYLLLTQSLWCRV	-0.721
NESHLDKEHDAVEVAD	0.337
NRLLKLFTRCLTPLVP	-0.292
AGSAKRRLFGEDPPKE	-0.249
PPTFLSTGEIHAFLSS	0.00354
EHCRVLFLDHVMYTIH	-0.896
LAKRALKYTD	-0.981

Set 4
Target: Interferon regulatory factor 7, full length, phosphomimetic (IRF7, Homo sapiens, UniProt Q92985, residues 1-503, S101K/S471D/S472D/S475D/S476D/S477D/S483D/S484D/S487D)
Technique: protein-binding microarray
Molecule type: double-stranded DNA, one strand shown
Medium: in vitro
Concentration: 250 nM
Notes: 60-bp whole probe
With: salmon DNA 0.4 mg/ml
Reference: random background probes
Reading: higher = stronger binding
Constant ends, left off below: GCCTAGCAC … GTCTTGATTCGCTTGACGCTGCTG
Construct (chain): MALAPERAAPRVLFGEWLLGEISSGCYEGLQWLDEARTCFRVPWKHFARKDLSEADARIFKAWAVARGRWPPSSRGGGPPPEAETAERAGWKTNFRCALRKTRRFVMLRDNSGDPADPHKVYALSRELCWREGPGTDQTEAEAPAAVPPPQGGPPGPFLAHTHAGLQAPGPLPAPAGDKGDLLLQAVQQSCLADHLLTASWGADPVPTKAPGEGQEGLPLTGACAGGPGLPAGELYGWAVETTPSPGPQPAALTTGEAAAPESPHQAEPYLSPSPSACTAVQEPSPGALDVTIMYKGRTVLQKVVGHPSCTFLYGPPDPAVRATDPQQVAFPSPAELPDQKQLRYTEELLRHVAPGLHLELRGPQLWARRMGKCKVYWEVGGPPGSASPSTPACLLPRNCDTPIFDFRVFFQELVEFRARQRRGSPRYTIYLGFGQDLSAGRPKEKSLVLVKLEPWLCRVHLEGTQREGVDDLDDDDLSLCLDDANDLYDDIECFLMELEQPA
Oligonucleotide	log fluorescence
TCATGTTGCAGACTCGAACTGTGCTAG	0.573 z-score
AAGTGTTTCTCAACCAGTTTGTGCTAG	0.328 z-score
TTATGACTGGGGTTTCGGTTAGTGCTA	5.43 z-score
GAAATTTTCCCCTACTGTATGTGCTAG	1.29 z-score
TTAGACCTGAGACTGGATTAGTGCTAG	-0.346 z-score
TCACCTCTCTTTCCAACACTGTGCTAG	0.871 z-score
TCACAACTCTGTTTTCGACTGTGCTAG	0.536 z-score
TGTCATTTTCTCTTATTCTAGTGCTAG	1.12 z-score
GCCGAACTGAGTATCGAGACGTGCTAG	0.101 z-score
CTTTATTTAAGCTCCTATCTTGTGCTA	0.67 z-score
TCACATATAATTTTGTCATCGTGCTAG	0.504 z-score
CCCTGTGTTACTTTCTACTTGTGCTAG	0.0899 z-score
CTAGGACTGCTTCTCCTTTAGTGCTAG	0.547 z-score
TTAGGTTTCGACTTTCGGTGAGTGCTA	10.5 z-score
GAAGGTTTCCTTTCCCTGACGTGCTAG	4.97 z-score
GACAGACTGCTTATCCTGACGTGCTAG	-0.149 z-score
GACGGACTGGACTTTCGGGTCGTGCTA	0.0102 z-score
GACGGTTTCGAATATCGGGACGTGCTA	4.9 z-score
GACGATTTCGGGGATCGAGACGTGCTA	0.302 z-score
TAAGATATCAGTTTCGATTAGTGCTAG	9.16 z-score
AGTGTTTGCCCTATTTAAAAGTGCTAG	1.43 z-score
TTTGGTTTCGGGTTTCGGTTAGTGCTA	13.2 z-score
ATCTTCATGAAATTTTAGTAAGTGCTA	0.0259 z-score
ATATATTCATATATATATGAGTGCTAG	0.807 z-score
AATTAAATGATATATATCCATGTGCTA	0.475 z-score
